Earlier results that unrelated publications cite.
Protocols differ between the studies behind these lines. Numbers after ± are the reported error.
MAOB: Amine oxidase [flavin-containing] B (MAOB, Homo sapiens, UniProt P27338)
Sequence of UniProt P27338 (whole entry, looked up): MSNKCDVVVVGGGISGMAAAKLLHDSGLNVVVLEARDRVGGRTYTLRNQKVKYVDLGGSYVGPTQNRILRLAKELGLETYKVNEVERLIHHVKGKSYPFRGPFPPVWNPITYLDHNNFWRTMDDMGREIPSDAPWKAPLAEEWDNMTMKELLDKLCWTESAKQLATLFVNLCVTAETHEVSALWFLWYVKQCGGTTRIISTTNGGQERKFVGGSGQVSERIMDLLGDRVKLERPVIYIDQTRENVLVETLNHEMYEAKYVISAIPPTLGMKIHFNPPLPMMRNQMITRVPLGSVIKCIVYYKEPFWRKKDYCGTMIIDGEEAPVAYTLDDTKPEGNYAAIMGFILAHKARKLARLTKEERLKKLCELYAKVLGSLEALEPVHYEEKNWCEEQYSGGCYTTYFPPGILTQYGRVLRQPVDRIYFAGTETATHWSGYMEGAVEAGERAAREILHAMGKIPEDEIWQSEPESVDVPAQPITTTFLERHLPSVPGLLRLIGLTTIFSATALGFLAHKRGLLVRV
lecB: Fucose-binding lectin PA-IIL (lecB, Pseudomonas aeruginosa, UniProt Q9HYN5)
ribH: 6,7-dimethyl-8-ribityllumazine synthase (ribH, Mycobacterium tuberculosis, UniProt P9WHE9)
Sequence of UniProt P9WHE9 (whole entry, looked up): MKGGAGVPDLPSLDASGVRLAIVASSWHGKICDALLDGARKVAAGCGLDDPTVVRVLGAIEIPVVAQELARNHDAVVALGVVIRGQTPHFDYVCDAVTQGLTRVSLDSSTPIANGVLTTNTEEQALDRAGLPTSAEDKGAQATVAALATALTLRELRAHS
Eif4e residues 28-217: Eukaryotic translation initiation factor 4E, residues 28-217 (Eif4e, Mus musculus, UniProt P63073)
Sequence of UniProt P63073 (28-217, looked up): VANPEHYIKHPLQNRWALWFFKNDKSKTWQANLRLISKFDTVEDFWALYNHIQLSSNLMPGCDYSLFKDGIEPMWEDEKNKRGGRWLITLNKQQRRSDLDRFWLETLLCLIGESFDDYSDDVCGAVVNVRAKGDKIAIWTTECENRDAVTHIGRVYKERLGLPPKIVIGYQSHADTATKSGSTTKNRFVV
lecA: PA-I galactophilic lectin (lecA, Pseudomonas aeruginosa, UniProt Q05097)
Sequence of UniProt Q05097 (whole entry, looked up): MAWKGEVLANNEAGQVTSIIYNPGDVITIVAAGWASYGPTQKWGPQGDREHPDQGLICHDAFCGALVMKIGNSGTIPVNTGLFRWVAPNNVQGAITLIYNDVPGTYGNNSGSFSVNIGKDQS
Sequence of UniProt Q5U3Y7 (whole entry, looked up): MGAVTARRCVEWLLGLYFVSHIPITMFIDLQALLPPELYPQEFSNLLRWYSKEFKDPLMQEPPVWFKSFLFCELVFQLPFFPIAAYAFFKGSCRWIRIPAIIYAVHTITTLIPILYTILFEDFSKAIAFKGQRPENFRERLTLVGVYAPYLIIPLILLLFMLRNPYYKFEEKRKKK
Sequence of UniProt A7T1N0 (whole entry, looked up): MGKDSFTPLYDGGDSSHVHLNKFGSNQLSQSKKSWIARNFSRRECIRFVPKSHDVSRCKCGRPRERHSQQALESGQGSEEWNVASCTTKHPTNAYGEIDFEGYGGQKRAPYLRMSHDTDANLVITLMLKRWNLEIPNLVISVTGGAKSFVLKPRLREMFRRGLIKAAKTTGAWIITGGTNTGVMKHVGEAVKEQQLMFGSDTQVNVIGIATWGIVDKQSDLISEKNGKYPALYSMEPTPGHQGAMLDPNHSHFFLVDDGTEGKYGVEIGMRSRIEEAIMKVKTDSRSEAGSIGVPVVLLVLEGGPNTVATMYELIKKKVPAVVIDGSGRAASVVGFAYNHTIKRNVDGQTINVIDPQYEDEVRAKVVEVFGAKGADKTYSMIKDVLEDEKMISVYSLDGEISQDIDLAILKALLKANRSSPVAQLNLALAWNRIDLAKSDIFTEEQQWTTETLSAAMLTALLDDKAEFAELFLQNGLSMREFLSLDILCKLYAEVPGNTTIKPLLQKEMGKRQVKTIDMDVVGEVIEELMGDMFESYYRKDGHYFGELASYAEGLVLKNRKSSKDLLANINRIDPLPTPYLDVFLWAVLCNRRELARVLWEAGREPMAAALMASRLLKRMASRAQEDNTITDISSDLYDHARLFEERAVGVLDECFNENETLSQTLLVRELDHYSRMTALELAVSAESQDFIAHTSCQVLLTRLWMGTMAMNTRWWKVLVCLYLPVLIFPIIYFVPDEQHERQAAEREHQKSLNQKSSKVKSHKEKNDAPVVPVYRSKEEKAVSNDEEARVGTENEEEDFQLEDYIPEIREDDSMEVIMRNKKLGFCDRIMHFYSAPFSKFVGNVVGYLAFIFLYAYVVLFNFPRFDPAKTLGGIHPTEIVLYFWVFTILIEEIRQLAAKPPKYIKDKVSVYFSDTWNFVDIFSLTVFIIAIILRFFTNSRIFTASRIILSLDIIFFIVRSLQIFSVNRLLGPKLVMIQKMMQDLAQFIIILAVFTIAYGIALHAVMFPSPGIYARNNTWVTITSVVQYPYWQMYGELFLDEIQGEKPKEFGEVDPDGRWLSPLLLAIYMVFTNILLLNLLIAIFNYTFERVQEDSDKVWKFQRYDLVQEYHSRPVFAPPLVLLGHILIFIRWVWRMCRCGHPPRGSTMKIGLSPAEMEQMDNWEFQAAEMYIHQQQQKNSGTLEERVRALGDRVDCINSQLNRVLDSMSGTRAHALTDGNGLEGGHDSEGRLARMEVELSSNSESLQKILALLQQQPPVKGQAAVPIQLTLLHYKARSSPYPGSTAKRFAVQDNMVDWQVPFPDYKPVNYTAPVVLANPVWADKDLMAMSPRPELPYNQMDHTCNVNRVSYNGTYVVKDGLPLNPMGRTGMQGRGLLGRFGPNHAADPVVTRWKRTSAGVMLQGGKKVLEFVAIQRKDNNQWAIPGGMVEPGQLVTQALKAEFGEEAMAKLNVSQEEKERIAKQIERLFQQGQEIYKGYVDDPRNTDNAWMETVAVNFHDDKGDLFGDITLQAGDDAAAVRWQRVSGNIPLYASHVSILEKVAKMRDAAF
Sequence of UniProt Q9UUB1 (whole entry, looked up): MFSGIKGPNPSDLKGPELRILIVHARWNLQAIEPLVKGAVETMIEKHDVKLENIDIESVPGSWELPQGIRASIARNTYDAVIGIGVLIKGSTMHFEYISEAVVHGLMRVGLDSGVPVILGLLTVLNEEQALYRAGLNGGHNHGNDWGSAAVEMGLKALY
Sequence of UniProt P63079 (whole entry, looked up): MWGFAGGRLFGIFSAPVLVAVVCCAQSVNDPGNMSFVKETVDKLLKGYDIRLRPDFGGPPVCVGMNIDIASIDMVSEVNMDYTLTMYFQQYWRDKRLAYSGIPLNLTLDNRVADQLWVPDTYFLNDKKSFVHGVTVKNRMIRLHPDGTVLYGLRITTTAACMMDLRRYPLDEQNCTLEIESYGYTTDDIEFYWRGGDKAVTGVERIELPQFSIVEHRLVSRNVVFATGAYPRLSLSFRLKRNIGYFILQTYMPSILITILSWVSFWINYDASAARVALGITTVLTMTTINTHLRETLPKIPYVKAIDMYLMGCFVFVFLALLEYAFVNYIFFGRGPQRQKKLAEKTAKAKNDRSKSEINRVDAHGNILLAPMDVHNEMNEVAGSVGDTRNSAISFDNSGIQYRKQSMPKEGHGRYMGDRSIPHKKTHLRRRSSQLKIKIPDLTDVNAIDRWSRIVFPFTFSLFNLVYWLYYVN
Sequence of UniProt Q16222 (whole entry, looked up): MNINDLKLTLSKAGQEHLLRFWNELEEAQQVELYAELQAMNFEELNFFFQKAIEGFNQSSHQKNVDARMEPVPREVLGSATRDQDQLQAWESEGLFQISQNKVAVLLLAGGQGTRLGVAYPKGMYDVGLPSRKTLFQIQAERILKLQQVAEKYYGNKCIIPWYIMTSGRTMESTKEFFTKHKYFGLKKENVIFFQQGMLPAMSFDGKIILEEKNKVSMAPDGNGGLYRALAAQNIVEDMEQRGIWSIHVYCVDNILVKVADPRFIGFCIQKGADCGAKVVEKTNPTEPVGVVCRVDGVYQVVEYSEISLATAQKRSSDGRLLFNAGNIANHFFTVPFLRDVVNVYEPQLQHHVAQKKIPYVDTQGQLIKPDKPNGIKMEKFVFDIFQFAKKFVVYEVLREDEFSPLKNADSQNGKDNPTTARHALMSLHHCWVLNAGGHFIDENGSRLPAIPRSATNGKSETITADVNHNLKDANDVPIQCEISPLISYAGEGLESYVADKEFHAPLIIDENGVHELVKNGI
Sequence of UniProt Q9UM07 (whole entry, looked up): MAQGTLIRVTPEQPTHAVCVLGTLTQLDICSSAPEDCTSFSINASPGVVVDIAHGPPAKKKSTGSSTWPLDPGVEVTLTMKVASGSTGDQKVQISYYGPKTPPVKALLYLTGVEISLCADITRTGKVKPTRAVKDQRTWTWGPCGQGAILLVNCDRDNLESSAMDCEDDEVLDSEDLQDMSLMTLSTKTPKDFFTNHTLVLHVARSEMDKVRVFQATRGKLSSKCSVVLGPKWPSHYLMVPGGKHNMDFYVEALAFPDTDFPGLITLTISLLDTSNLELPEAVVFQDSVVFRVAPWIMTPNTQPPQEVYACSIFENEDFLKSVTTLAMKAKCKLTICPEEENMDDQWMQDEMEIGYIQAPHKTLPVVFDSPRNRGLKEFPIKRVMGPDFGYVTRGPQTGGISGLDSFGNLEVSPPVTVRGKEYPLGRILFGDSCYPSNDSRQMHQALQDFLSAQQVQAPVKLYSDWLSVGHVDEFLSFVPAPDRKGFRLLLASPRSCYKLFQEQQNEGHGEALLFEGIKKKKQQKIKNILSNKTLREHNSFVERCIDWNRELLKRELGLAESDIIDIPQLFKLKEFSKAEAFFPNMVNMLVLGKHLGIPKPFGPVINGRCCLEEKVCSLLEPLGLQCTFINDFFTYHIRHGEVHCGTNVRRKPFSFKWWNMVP
Sequence of UniProt P83788 (whole entry, looked up): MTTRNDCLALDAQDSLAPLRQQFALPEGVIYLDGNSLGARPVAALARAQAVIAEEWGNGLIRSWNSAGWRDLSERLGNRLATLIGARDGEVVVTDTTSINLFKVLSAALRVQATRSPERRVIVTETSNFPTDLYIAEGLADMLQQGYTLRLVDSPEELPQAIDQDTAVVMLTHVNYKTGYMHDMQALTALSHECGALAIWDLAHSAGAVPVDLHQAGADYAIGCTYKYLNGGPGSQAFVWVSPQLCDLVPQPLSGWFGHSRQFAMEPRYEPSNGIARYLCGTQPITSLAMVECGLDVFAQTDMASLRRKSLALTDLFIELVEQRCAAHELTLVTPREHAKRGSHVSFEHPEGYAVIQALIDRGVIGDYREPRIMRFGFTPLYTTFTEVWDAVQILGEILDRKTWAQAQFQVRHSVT

With `CC(=O)c1ccc(OCc2cccc(Br)c2)cc1O` the selectivity ratio was 3950 (MAOB; reference: IC50 MAO-A over IC50 MAO-B).
`CO[C@H]1O[C@H](CO)[C@@H](O)[C@H](O)[C@@H]1O` gave a ΔH of -4.3 kcal/mol (lecB; binding, ITC).
`Nc1c(O)cccc1C(=O)C[C@H](N)C(=O)O` has a Km of 200 µM (Kynureninase (kynU, Pseudomonas fluorescens, UniProt P83788); substrate; Pseudomonas enzyme).
For `CC(C)C(=O)Nc1c(NC[C@H](O)[C@H](O)[C@H](O)CO)[nH]c(=O)[nH]c1=O`, “Ki (uncompetitive, ESI)” read 77 ± 28 µM (ribH; pH 7.0).
`C[C@H](NC(=O)[C@@H]1CCCN1C(=O)[C@@H]1CCCN1C(=O)[C@H](C)NC(=O)[C@@H](NC(=O)[C@H](CO)NC(=O)CNC(=O)[C@@H]1CCCN1C(=O)[C@H](C)NC(=O)[C@@H]1CCCN1C(=O)[C@@H](N)CCCNC(=N)N)[C@@H](C)O)C(=O)N[C@@H](Cc1c[nH]cn1)C(=O)NCC(=O)O` gave a koff of 0.0039 s⁻¹ (16 A monoclonal antibody; SPR).
`O=c1ccn(C2OC(COP(=O)(O)OP(=O)(O)OP(=O)(O)O)C(O)C2O)c(=O)[nH]1` (stereo not shown) gave a Km of 53 µM (UAP1 (Homo sapiens, UniProt Q16222); substrate).
With `N=C(CF)NCCC[C@H](NC(=O)c1ccc(-c2ccccc2)cc1)c1nc2ccccc2[nH]1` the kinact/KI was 62.5 M⁻¹ s⁻¹ (Protein-arginine deiminase type-4 (PADI4, Homo sapiens, UniProt Q9UM07); inhibitor).
Under “Ki (uncompetitive, ESI)”, `Nc1c(SC[C@H](O)[C@H](O)[C@H](O)CO)[nH]c(=O)[nH]c1=O` is recorded as 57 ± 24 µM (ribH; pH 7.0).
With `CC(=O)N[C@@H](Cc1ccccc1)C(=O)N[C@@H](CC(=O)O)C(=O)N[C@@H](CC(N)=O)C(=O)N1CCC[C@H]1C(=O)N[C@H](C(=O)N[C@@H](C)C(=O)O)C(C)C` the internalization index was 0.2 (LDL receptor, position 807 mutant; reference: native LDL receptor).
`CN[C@H](CC(C)C)C(=O)N[C@H]1C(=O)N[C@@H](CC(N)=O)C(=O)N[C@H]2CN[C@H]3C(=O)N[C@H](C(=O)N[C@H](C(=O)O)c4cc(O)cc(O)c4-c4cc3ccc4O)[C@H](O)c3ccc(c(Cl)c3)Oc3cc2cc(c3O)Oc2ccc(cc2Cl)[C@H]1O` — result for “binding affinity increase”: 40 fold (D-Ala-D-Lac; concentration not given; reference: vancomycin aglycon).
For `CCOc1ccc(C(C)=O)cc1NC(=O)c1cccc(C(=O)O)c1`, the selectivity ratio was greater than 65 fold (CREB-binding protein, bromodomain (CREBBP, Homo sapiens, UniProt Q92793); reference: Kd BRD4(1) over Kd CREBBP).
`Cc1cccc(C)c1NC(=O)C1CCN(Cc2ccccc2)C1` (stereo not shown) has an IC50 ratio of 13.7 (Sodium channel protein type 4 subunit alpha (SCN4A, Homo sapiens, UniProt P35499); sodium current block, blocker; reference: 0.1 Hz over compound Hz).
`Cc1cc2c(c(=O)o1)C=C1CCC(C(C)CNCc3ccc(O)cc3)CC1O2` (stereo not shown) — result for ABCA1 expression: “increased” (ABCA1; concentration not given).
For `CO[C@@H]1[C@H](O)[C@@H](COP(=O)(O)OP(=O)([O-])OP(=O)(O)OP(=O)(O)OC[C@H]2O[C@@H](n3cnc4c(=O)[nH]c(N)nc43)[C@H](O)[C@@H]2O)O[C@H]1n1c[n+](C)c2c(O)nc(N)nc21`, the association constant was 99.8 µM⁻¹ (Eif4e residues 28-217; binding, fluorescence quenching titration; pH 7.2).
With `CC(=O)N1N=C(c2ccc(F)cc2)CC1c1ccc(-c2cncnc2)cc1` (stereo not shown) the inhibitory concentration was 0.19 µM (EGFR; kinase activity, inhibitor).
`OC[C@H]1O[C@@H](OCc2cn([C@H]3[C@H](O)[C@@H](O)[C@H](c4cn([C@H]5[C@H](O)[C@@H](O)[C@H](n6cc([C@@H]7O[C@H](CO)[C@@H](n8cc(CO[C@@H]9O[C@H](CO)[C@H](O)[C@H](O)[C@H]9O)nn8)[C@H](O)[C@H]7O)nn6)O[C@@H]5CO)nn4)O[C@@H]3CO)nn2)[C@H](O)[C@@H](O)[C@H]1O` has a binding stoichiometry of 0.55 (lecA; ITC; concentration not given).
With `C=CC(=O)N1CCC[C@@H](n2nc(-c3cccc4ccccc34)c3c(N)ncnc32)C1` the kinact/Ki was 50000 ± 40000 M⁻¹ s⁻¹ (Epidermal growth factor receptor (EGFR, Homo sapiens, UniProt P00533)).
For `CN(C)c1ccc(/N=N/c2ccc(S(=O)(=O)O)cc2)cc1`, “number of binding sites” read 16 (bovine serum albumin; equilibrium dialysis; concentration not given).
`O=c1[nH]c(SC[C@H](O)[C@H](O)[C@H](O)CO)c([N+](=O)[O-])c(=O)[nH]1` — result for “Ki (uncompetitive, ESI)”: 62 ± 23 µM (ribH; pH 7.0).
`COc1ccc(-n2nc3c4cc(Cl)ccc4[nH]cc-3c2=O)cc1` gave a maximum modulation of roughly 1000% (Gamma-aminobutyric acid receptor subunit alpha-1/beta-3 (Gabra1/Gabrb3, Rattus norvegicus, UniProt P62813+P63079); ion current, modulator; α1β3γ2, with: GABA EC3-5).
For `C[n+]1cn([C@@H]2O[C@H](COP(=O)(O)OP(=O)([O-])OP(=O)(O)OP(=O)(O)OC[C@H]3O[C@@H](n4cnc5c(=O)[nH]c(N)nc54)[C@H](O)[C@@H]3O)[C@@H](O)[C@H]2O)c2nc(N)nc(O)c21`, the association constant was 103 µM⁻¹ (Eif4e residues 28-217; binding, fluorescence quenching titration; pH 7.2).
The inhibition of `CCOC(=O)CNC(=O)CN1C(=O)S/C(=C\c2ccc(C)cc2)C1=O` is reported as 51% (α-glucosidase; enzyme activity; 200 µM).
`O=c1[nH]c(NC[C@H](O)[C@H](O)[C@H](O)CO)c([N+](=O)[O-])c(=O)[nH]1` gave a Ks of 52 ± 6 µM (ribH; enzyme kinetics; pH 7.0, with: substrate 2 fixed, 1 varied; lower = tighter substrate binding).
For `C=CC(=O)N1CCC[C@@H](n2nc(-c3ccc4ccccc4c3)c3c(N)ncnc32)C1`, the kinact was 0.17 ± 0.02 min⁻¹ (Epidermal growth factor receptor (EGFR, Homo sapiens, UniProt P00533, L858R/T790M)).
For `Cc1cc(C(=O)O)ccc1Sc1ccccc1N1CCNCC1`, binding read “no binding” (major 5-HT receptors; concentration not given).
The Km of `CC(=O)N[C@H]1[C@@H](O)[C@H](O)[C@@H](CO)O[C@H]1O` is reported as 140 ± 8 µM (N-acetylmannosamine kinase (Staphylococcus aureus); substrate).
For `COc1cc2c(cc1OC)CN(CCCCn1ccc3cc(OCC[18F])ccc31)C2`, the selectivity ratio was 57 (Sigma intracellular receptor 2 (Tmem97, Rattus norvegicus, UniProt Q5U3Y7); binding; reference: Ki sigma1 over Ki sigma2).
`CO[C@H]1O[C@H](CNS(=O)(=O)c2c(C)cc(C)cc2C)[C@@H](O)[C@H](O)[C@@H]1O` gave a ΔG of -7.5 kcal/mol (lecB; binding, ITC).
The Km of `Nc1ncnc2c1ncn2C1OC(COP(=O)(O)OP(=O)(O)OCC2OC(O)C(O)C2O)C(O)C1O` (stereo not shown) is reported as 4.1 ± 0.6 µM (TRPM2, NUDT9-H domain (Nematostella vectensis, UniProt A7T1N0); hydrolysis, substrate).
With `CC(=O)c1cc(OCc2cccc(Br)c2)ccc1O` the selectivity ratio was 34 (MAOB; reference: IC50 MAO-A over IC50 MAO-B).
For `C=CC(=O)N1CCC[C@@H](n2nc(-c3cn(C)c4ccccc34)c3c(N)ncnc32)C1`, the kinact/Ki was 80000 ± 20000 M⁻¹ s⁻¹ (Epidermal growth factor receptor (EGFR, Homo sapiens, UniProt P00533)).
With `CC[C@H](C)[C@H](NC(C)=O)C(=O)N[C@H]1CSSC[C@@H](C(=O)N[C@H](C(N)=O)[C@@H](C)O)NC(=O)[C@H](CCCNC(=N)N)NC(=O)[C@H](Cc2c[nH]cn2)NC(=O)[C@H](C)NC(=O)CNC(=O)[C@H](Cc2c[nH]c3ccccc23)NC(=O)[C@H](CC(=O)O)NC(=O)[C@H](CCC(N)=O)NC(=O)[C@H](Cc2ccc3ccccc3c2)NC(=O)[C@H](C(C)C)NC1=O` the −TΔS was 4.8 kcal/mol (Complement C3 (Homo sapiens, UniProt P01024); binding, ITC).
For `CCOC(=O)C(=O)Nc1c(NC[C@H](O)[C@H](O)[C@H](O)CO)[nH]c(=O)[nH]c1=O`, “Ki (uncompetitive, ESI)” read 15 ± 3 µM (6,7-dimethyl-8-ribityllumazine synthase (rib4, Schizosaccharomyces pombe, UniProt Q9UUB1); pH 7.0).
For `Nc1c2ncn3c2nc[n+]1[C@@H]1O[C@H](COP(=O)(O)OP(=O)([O-])OC[C@H]2O[C@@H]3[C@H](OP(=O)(O)O)[C@@H]2O)[C@@H](O)[C@H]1O`, activity read “inactive” (cADPR receptor, sea urchin; sea urchin egg homogenate; concentration not given).
`CCCCN(CCc1ccccc1)CCc1cccc(O)c1` — result for activity: “inactive” (dopamine receptors; concentration not given).
`OCCn1cc(CO[C@@H]2O[C@H](CO)[C@H](O)[C@H](O)[C@H]2O)nn1` gave a ΔG of -6.3 kcal/mol (lecA; ITC).
`C=CCC(=N)NCCC[C@H](N)C(=O)O` has a selectivity ratio of 120 (nitric oxide synthase; reference: Ki eNOS over Ki nNOS).

Repeated from above:
`Cc1cc2c(c(=O)o1)C=C1CCC(C(C)CNCc3ccc(O)cc3)CC1O2` (stereo not shown) — result for ABCA1 expression: “increased” (ABCA1; concentration not given).
`Nc1c(O)cccc1C(=O)C[C@H](N)C(=O)O` has a Km of 200 µM (Kynureninase (kynU, Pseudomonas fluorescens, UniProt P83788); substrate; Pseudomonas enzyme).
`O=c1[nH]c(SC[C@H](O)[C@H](O)[C@H](O)CO)c([N+](=O)[O-])c(=O)[nH]1` — result for “Ki (uncompetitive, ESI)”: 62 ± 23 µM (ribH; pH 7.0).
For `CN(C)c1ccc(/N=N/c2ccc(S(=O)(=O)O)cc2)cc1`, “number of binding sites” read 16 (bovine serum albumin; equilibrium dialysis; concentration not given).
